Assay results pooled from the literature.
Lines come from different studies, so protocols differ. Values joined by “and” are separate records of one study, mostly repeats; a detail may differ. Numbers after ± are the reported error.

Compound | test | test system | setting | how to read | measurement | value
Cc1ccc([C@@H]2O[C@H](CO)[C@@H](O)[C@H](O)[C@H]2O)cc1Cc1ccc(-c2ccc(F)cc2)s1 | – | Japanese type 2 diabetes patients | 25 mg, day 4, 24 h urine collection | baseline: baseline | urinary calcium excretion change | -25.6 mg
CC(C)C[C@H](NC(=O)[C@@H](Cc1c[nH]c2ccccc12)NC(=O)[C@H](Cc1ccc(O)cc1)NC(=O)[C@H](CO)NC(=O)[C@H](Cc1c[nH]c2ccccc12)NC(=O)[C@H](Cc1c[nH]cn1)NC(=O)[C@@H]1CCC(=O)N1)C(=O)N[C@@H](CCCNC(=N)N)C(=O)N1CCC[C@H]1C(=O)NCC(N)=O | – | Chinese CPP children, overall | intramuscular, 22.5 mg, 12 months, day 1, month 6 | – | patients, grade ≥3 TEAEs | 0%
CCn1cc(C(=O)N2CCOCC2)c(=O)c2cc(NC3Cc4ccccc4C3)cnc21 | – | human, fed | oral suspension, 1200 mg/day twice daily, day 8, arithmetic mean | – | AUC(0-12) | 21.9 µg·h/mL
C[C@H]1[C@H]2N(C(=O)CN(C)N2C(=O)NCc2ccccc2)[C@@H](Cc2ccc(OP(=O)(O)O)cc2)C(=O)N1Cc1cccc2cccnc12 | – | patients, plasma | intravenous infusion, 140 mg/m2 over 4 h, median | – | AUC(0-24 h) | 3.36 µg·h/mL
CCc1cc(C(=O)NC)c2nccc(N3CCc4c(cc(Cn5ccnc5)cc4-c4cn(C)nc4C(F)(F)F)C3=O)c2c1 | – | Sprague Dawley rats | oral, 50 mg/kg once daily, 7 days | – | blood MCHC | 300 ± 4.86 g/L
C[C@@H]1OC(=O)[C@H](Cc2ccccc2)[C@H]1O | soil adsorption | clay loam soil | pH 7.2, organic carbon 4.4 % | – | Freundlich coefficient KF | 1.29 mL/g
Cc1ccc(C(=O)N(CCCN)C(c2nc3snc(C)c3c(=O)n2Cc2ccccc2)C(C)C)cc1 (centres unmarked) | – | human patients, plasma | intravenous, 7 mg/day, day 3 of induction course, geometric mean | – | plasma concentration at 24 h | 8 ng/mL
C[C@@H](O)[C@H]1C(=O)N2C(C(=O)O)=C(S[C@@H]3CN[C@H](C(=O)N(C)C)C3)[C@H](C)[C@H]12 | – | human whole blood | concentration not given, 24 h, 4 °C | – | deviation from nominal concentration | -1.5%
CCCOc1ccc(-c2ccc(C#N)cc2)cc1 | item: compound | human pregnant women, female fetuses, maternal serum | dose not given, paired maternal-cord samples, mean | – | concentration | 0.86 ng/mL
Cc1cc(-c2nccc3c2ccn3CC(=O)Nc2ccc(-c3cnccn3)cn2)ccn1 | – | human | SAD part, single 20 mg dose | – | subjects with cardiac disorders TEAEs | 0%
Cc1cc(Nc2ccc(S(F)(F)(F)(F)F)cc2)n2nc(C(C)(F)F)nc2n1 | – | Plasmodium vivax malaria patients | oral, 800 mg | – | adverse event Fatigue | 0%
O=C(O)CSc1nnc(Br)n1-c1ccc(C2CC2)c2ccccc12 | – | KM mouse, chronic hyperuricaemia model | dose not given, day 22 | – | body weight | 35.5 g and 31.4 g and 32.5 g and 39.3 g and 36.9 g and 36 g
Cc1nc2cccc(OCC(C)(C)C(=O)NC(C)C)c2c(N)c1C(=O)O | – | Sprague-Dawley rat, female, plasma | oral, 10 mg/kg, day 7 over day 1, 7-day repeated dosing | baseline: day 7 over day 1 | Cmax ratio | 0.96 ± 0.3
C[C@@H](Oc1ccc(S(C)(=O)=O)cc1C(=O)N1C[C@@H]2C[C@]2(c2cc(C(F)(F)F)on2)C1)C(F)(F)F | – | young healthy humans, urine | oral, 10 mg, 0 to 24 h, single dose | – | fraction excreted in urine | 2.71%
CC(=O)c1c(C)c2cnc(Nc3ccc(N4CCNCC4)cn3)nc2n(C2CCCC2)c1=O | – | G-Smo medulloblastoma mice (hGFAP-Cre x SmoM2), serum | intraperitoneal, 25 mg/kg single, dosed at postnatal day P10 | – | volume of distribution | 8.45 mL
C[C@@H](N)C1CCN(S(=O)(=O)c2cccc3cnccc23)CC1 | – | healthy volunteers | 250 mg, fasted | – | participants with dizziness | 16.7%
Cn1ncc(C(=O)O)c1S(=O)(=O)NC1CCOc2ccccc21 (centres unmarked) | colloidal aggregate formation, dynamic light scattering | 50 mM potassium phosphate buffer | 200 µM, pH 7.0, 1% DMSO | higher = more aggregation | DLS scattered light intensity | 561000 counts/s
O=C(Nc1nc2cccc(-c3ccc(CN4CCS(=O)(=O)CC4)cc3)n2n1)C1CC1 | item: thrombocytopenia | rheumatoid arthritis patients | oral, 30 mg once daily, 4 weeks, any relatedness | – | treatment-emergent adverse events | 0%
CC[C@H](C)CCCCC(=O)N[C@@H](CCN)C(=O)N[C@H](C(=O)N[C@@H](CCN)C(=O)N[C@H]1CCNC(=O)[C@H]([C@@H](C)O)NC(=O)[C@H](CCN)NC(=O)[C@H](CCN)NC(=O)[C@H](CC(C)C)NC(=O)[C@@H](Cc2ccccc2)NC(=O)[C@H](CCN)NC1=O)[C@@H](C)O | – | mild renal impairment | intravenous infusion, 0.75 mg/kg single dose over 1 h, arithmetic mean | – | volume of distribution (Vz) | 22.4 L
CC(=O)N(C)[C@H]1CCN(C(=O)c2cnc3c(c2)C[C@](C)(c2ccc(F)cc2)N3)C1 | – | male humans, plasma | oral, dose not given, multiple dosing | – | duration of detectable plasma levels | ~5 days
Cc1cc(C)c(CNC(=O)c2cc(Cl)c3c(c2C)O[C@@](C)([C@H]2CC[C@H](N(C)C)CC2)O3)c(=O)[nH]1 | radiochromatography | human, urine | oral, 200 mg | baseline: dose | urinary excretion | 8.8% and 14.5% and 9% and 9.3%
O=S(=O)(NC(CCc1ccccc1)C(F)(F)F)c1cccc(Cl)c1O (centres unmarked) | colloidal aggregate formation, dynamic light scattering | 50 mM potassium phosphate buffer | 200 µM, pH 7.0, 1% DMSO | higher = more aggregation | DLS scattered light intensity | 292000 counts/s

Compound | test | test system | setting | how to read | measurement | value
CC(=O)N[C@@H](CCCNC(=N)N)C(=O)N[C@H]1CSSC[C@@H](C(N)=O)NC(=O)[C@H](Cc2c[nH]c3ccccc23)NC(=O)[C@H](CCCNC(=N)N)NC(=O)[C@@H](Cc2ccccc2)NC(=O)[C@H](Cc2c[nH]cn2)NC(=O)[C@@H](C)NC1=O | – | telemetered cynomolgus monkeys | subcutaneous, 3 mg/kg | – | body temperature | decreased
Cc1c(-c2ccc(N3CCc4cccc(C(=O)Nc5nc6ccccc6s5)c4C3)nc2C(=O)O)cnn1CC12CC3(C)CC(C)(C1)CC(OCCNCC[C@H](O)CO)(C3)C2 | – | beagle dog, anaesthetised | intravenous infusion, 0.3 mg/kg/min, 105 min | baseline: vehicle | PR interval change | 0 ms
CN(C(=O)n1cnc(-c2cccnc2)c1)[C@H]1CC[C@H](O)CC1 | – | rat, hippocampus | oral, 10 mg/kg daily for 5 days, 24 h | – | tissue concentration | 17.2 ± 1.6 ng/g
Cc1cc(C)cc(NC(=O)Nc2ccc(N3CCCCC3)cc2)c1 | haemolysis | sheep erythrocytes | 1 h, pH 7.5 | – | HC50 | > 128 µg/mL
O=C(O)CCC(=O)O.[2H]C([2H])([2H])Oc1cc(C)c2[nH]ccc2c1CN1CC[C@@H](C2CC2)C[C@H]1c1ccc(C(=O)O)cc1 | – | human, plasma | 125 mg twice daily, day 1, multiple ascending dose, median | – | Tmax | 4 h
Cc1cc(N2CCc3c(c(C)nn3CC34CCC(NC(=O)[C@@H]5COCCN5)(CC3)CC4)C2)c2cnn(C)c2n1 | – | 129/Sv mice, blood | oral, 15 mg/kg, 3 h | – | blood concentration | 0.71 ± 0.085 µM
Cc1cc(NC2CCN(C(=O)OC3CCN(C(=O)/C=C/CN(C)C)C3)CC2)n2ncc(C(C)C)c2n1 (centres unmarked) | Phase I dose escalation CTCAE v4.0, item: Ascites | patients with advanced solid tumours | dose not given, TIW dosing any grade | – | patients with adverse event | 9%
[18F]c1ccc(-c2ccc3c(c2)[nH]c2ccncc23)cn1 | ex vivo biodistribution | APP/PS1 mouse, AD model, muscle | intravenous, 30 min | – | SUV | 0.209 ± 0.04
COc1nc(-c2cc(C)c(N[C@@H](C)c3cc(F)cc(F)c3)nn2)ccc1-n1cnc(C)c1 | – | CD-1 mouse, male, plasma | oral, 5 mg/kg | – | Vss | 3.6 L/kg
C=CC1(C)CC(OC(=O)CSc2nc3ccccc3s2)C2(C)C(C)CCC3(CCC(=O)C32)C(C)C1O (centres unmarked) | haemolysis | sheep erythrocytes | 1 h, pH 7.5 | – | HC50 | > 128 µg/mL
Cn1ncc(S(=O)(=O)NC2CCSc3c(F)cccc32)c1C(=O)O (centres unmarked) | colloidal aggregate formation, dynamic light scattering | 50 mM potassium phosphate buffer | 200 µM, pH 7.0, 1% DMSO | higher = more aggregation | DLS scattered light intensity | 543000 counts/s
CC(C(=O)NCC(=O)NCC(CNC(=O)CNC(=O)C(C)N1CCN(CC(=O)[O-])CCN(CC(=O)[O-])CCN(CC(=O)[O-])CC1)(CNC(=O)CNC(=O)C(C)N1CCN(CC(=O)[O-])CCN(CC(=O)[O-])CCN(CC(=O)[O-])CC1)CNC(=O)CNC(=O)C(C)N1CCN(CC(=O)[O-])CCN(CC(=O)[O-])CCN(CC(=O)[O-])CC1)N1CCN(CC(=O)[O-])CCN(CC(=O)[O-])CCN(CC(=O)[O-])CC1.[Gd+3].[Gd+3].[Gd+3].[Gd+3] (centres unmarked) | HPLC-ICP-MS | cynomolgus monkey, urine | up to 72 h | baseline: total Gd | intact compound share | > 98%
COc1ccc2cc(CNC(=O)C3(C(=O)O)CC=CC3)ccc2c1 | colloidal aggregate formation, dynamic light scattering | 50 mM potassium phosphate buffer | 200 µM, pH 7.0, 1% DMSO | higher = more aggregation | DLS scattered light intensity | 710000 counts/s
CNC(=O)c1cc(Oc2ccc(NC(=O)Nc3cc(C(C)(C)C)nn3-c3ccc4ncccc4c3)c(F)c2)ccn1 | item: worst grade 1 | human | oral, dose not given, cycles 1 and 2, High AUC(0-4 h) subgroup | – | patients with any AE of special interest | 39%
Cc1cc(-c2nnc(N)nc2-c2ccc(F)cc2)cc(Cl)n1 | item: decreased appetite, any grade | post-IO NSCLC patients | oral, 100 mg once daily | – | incidence of treatment-related AE | 11.8%
COc1cc(Nc2ncc3c(n2)-c2ccc(Cl)cc2C(c2c(F)cccc2OC)=NC3)ccc1C(=O)O | item: Dysgeusia, grade 1 | cancer patients, phase 1/2 | oral, dose not given, added: pembrolizumab | – | patients with adverse event | 8%
CCN1/C(=C/C(C)=O)Sc2ccc(F)cc21 | – | cynomolgus monkey | oral, 100 mg/kg, 0.5 h post-dose | baseline: pre-dose | diastolic blood pressure change | 102 ± 8.1%
OC[C@H]1O[C@@H](c2ccc(Cl)c(Cc3ccc(O[C@H]4CCOC4)cc3)c2)[C@H](O)[C@@H](O)[C@@H]1O | – | Japanese type 1 diabetes patients, blood | 25 mg, day 28 | baseline: baseline | change in HDL cholesterol | 5.75 mg/dL
Cc1cc(Nc2cc3ncccc3c(N[C@@H]3C[C@H]4CC[C@@H](C3)N4CCC#N)n2)n[nH]1 | – | healthy human | oral, 100 mg single dose, 2 weeks | – | subjects with epistaxis | 0%
C[C@H]1CN(C(=O)CC#N)[C@]12CCN(c1ncnc3[nH]ccc13)C2 | – | healthy Japanese males, plasma | oral, 50 mg single dose | – | Cmax | 619 ng/mL
Nc1ccn([C@@H]2O[C@H](CO)[C@@H](O)C2(F)F)c(=O)n1 | item: dFdU | human, plasma | intravenous, 800 mg/m^2, added: before paricalcitol | – | Tmax, median | 1 h
Cn1cc(Nc2nccc(-c3ccc4c(c3)CN(C3COC3)CC[C@H]4NC(=O)c3cn(C(C)(C)C)nn3)n2)cn1 | – | human, whole blood | 50 mg twice daily, day 14 | baseline: pre-dose baseline | plasma cell count change | 0.16%
